# Assay results pooled from the literature.
# Numbered parts are unrelated; each lists some results of a single study.
# Chain of UniProt O75914 (whole entry, looked up): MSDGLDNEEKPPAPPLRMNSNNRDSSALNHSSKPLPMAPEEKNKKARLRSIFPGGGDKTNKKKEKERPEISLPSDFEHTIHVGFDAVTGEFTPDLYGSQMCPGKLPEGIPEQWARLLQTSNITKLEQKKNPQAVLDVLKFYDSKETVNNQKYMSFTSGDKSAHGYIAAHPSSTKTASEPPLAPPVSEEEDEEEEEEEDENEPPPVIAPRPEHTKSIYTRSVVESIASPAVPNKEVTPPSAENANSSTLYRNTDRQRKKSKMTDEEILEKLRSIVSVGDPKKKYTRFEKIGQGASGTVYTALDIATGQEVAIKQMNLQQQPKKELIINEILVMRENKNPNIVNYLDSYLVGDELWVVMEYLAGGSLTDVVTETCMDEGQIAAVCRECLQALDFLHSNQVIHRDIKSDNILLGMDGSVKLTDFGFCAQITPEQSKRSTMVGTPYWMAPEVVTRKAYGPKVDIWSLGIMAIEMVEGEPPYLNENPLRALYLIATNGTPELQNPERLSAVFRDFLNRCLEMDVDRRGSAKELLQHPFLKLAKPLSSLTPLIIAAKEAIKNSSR
# Chain of UniProt P24723 (whole entry, looked up): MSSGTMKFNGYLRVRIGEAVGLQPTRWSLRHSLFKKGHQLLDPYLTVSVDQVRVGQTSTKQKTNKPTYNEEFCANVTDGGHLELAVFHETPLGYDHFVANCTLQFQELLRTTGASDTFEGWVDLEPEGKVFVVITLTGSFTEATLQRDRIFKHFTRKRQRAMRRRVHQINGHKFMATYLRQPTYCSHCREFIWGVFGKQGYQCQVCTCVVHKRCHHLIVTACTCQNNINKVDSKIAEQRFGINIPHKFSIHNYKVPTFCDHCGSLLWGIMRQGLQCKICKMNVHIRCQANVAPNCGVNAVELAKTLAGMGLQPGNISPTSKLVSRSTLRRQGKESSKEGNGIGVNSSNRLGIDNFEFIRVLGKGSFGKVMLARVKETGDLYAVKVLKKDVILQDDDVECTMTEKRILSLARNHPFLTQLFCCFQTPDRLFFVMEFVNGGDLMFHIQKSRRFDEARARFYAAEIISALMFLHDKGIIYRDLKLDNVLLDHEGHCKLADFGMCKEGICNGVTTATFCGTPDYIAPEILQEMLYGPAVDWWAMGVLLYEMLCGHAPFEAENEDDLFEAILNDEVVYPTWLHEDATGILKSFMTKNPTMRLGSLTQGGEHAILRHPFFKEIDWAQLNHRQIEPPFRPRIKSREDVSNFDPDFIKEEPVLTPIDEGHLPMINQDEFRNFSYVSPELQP
# Chain of UniProt P29597 (whole entry, looked up): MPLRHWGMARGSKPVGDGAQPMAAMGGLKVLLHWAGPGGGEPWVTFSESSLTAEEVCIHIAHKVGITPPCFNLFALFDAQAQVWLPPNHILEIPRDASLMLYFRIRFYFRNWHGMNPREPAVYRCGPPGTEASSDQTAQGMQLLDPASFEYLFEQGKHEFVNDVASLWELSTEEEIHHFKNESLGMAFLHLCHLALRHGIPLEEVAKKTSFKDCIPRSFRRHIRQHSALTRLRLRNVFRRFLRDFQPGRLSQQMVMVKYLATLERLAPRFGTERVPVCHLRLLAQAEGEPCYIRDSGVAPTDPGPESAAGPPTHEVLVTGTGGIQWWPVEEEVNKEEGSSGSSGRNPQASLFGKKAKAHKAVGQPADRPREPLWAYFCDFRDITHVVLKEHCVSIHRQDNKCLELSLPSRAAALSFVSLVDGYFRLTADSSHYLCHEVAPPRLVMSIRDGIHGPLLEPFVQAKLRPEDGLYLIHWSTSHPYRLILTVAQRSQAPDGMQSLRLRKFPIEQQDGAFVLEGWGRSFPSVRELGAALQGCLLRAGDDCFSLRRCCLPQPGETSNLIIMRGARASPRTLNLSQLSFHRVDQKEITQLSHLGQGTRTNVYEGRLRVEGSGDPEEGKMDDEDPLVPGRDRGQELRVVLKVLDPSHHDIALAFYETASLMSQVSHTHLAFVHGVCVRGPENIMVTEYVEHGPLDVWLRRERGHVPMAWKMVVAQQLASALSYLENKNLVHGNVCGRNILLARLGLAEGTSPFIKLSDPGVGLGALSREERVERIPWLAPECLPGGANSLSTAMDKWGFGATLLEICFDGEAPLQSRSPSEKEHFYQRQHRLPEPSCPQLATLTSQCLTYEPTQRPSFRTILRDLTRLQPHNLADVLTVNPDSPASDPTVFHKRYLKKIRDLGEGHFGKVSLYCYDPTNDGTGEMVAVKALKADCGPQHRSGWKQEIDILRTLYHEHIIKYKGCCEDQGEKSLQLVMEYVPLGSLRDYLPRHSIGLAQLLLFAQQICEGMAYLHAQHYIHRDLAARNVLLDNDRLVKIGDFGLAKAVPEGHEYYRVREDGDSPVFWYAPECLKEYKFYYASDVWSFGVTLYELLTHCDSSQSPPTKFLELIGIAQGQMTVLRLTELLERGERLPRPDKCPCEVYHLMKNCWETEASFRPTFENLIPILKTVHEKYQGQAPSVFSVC
# Chain of UniProt Q15139 (whole entry, looked up): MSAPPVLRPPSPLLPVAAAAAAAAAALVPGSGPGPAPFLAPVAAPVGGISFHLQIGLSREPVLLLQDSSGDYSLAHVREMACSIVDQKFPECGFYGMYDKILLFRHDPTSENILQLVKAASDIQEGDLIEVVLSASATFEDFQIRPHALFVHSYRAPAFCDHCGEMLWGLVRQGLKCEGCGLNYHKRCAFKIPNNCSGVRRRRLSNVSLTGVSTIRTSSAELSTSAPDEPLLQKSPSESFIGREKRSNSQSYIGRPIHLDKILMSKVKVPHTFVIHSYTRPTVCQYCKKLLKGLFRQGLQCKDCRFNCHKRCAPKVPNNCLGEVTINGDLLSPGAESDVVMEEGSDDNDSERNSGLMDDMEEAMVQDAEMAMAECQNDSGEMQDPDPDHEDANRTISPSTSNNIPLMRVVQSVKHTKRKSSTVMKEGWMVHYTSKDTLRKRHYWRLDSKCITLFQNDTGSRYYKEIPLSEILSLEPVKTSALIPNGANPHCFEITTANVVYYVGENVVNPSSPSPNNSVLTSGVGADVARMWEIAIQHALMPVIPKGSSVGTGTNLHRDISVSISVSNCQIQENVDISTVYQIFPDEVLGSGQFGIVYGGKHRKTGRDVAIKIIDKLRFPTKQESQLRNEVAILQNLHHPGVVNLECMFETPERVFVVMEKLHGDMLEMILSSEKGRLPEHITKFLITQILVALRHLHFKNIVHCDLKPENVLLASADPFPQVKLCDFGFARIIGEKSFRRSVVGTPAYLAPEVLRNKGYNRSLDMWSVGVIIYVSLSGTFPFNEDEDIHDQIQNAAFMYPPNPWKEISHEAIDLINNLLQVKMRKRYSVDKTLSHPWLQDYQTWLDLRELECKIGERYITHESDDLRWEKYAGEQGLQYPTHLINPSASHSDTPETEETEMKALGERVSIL
# Chain of UniProt P49336 (whole entry, looked up): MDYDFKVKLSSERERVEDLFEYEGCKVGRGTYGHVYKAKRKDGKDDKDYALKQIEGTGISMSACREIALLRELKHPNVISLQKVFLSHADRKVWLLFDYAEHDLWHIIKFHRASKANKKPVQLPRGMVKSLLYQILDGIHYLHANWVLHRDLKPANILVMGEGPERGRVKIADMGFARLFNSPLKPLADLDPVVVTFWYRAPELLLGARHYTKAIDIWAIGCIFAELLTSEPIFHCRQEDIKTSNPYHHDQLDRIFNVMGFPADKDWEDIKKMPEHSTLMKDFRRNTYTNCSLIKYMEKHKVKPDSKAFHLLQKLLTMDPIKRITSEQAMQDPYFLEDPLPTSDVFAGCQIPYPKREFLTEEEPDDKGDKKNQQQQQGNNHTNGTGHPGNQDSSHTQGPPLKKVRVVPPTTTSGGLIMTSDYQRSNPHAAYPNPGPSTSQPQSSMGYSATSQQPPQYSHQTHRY
# Chain of UniProt O96013 (whole entry, looked up): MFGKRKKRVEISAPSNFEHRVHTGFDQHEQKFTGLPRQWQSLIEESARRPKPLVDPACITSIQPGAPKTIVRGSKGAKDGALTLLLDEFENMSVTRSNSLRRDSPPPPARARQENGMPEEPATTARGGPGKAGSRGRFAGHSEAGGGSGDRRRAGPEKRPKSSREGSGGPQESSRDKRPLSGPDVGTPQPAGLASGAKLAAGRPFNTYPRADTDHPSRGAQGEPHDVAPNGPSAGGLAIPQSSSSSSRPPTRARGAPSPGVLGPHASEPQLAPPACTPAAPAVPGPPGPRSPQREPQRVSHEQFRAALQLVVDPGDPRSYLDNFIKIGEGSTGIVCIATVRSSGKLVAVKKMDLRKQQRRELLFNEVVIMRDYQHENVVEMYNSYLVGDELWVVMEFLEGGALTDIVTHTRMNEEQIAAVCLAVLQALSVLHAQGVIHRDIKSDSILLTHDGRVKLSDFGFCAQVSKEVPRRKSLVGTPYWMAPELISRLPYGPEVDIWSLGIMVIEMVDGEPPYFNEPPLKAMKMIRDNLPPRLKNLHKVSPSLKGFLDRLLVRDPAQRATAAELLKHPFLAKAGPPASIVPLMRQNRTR

# Block 1 — organism: Sarcocystis neurona; observed: parasite growth; concentration: 10 µM; setting: secondary screen
Structure (SMILES),inhibition
C[C@@H]1CN(CCCn2c3ccccc3c3ccccc32)C[C@H](C)N1,0.249%
CCC1=C[C@@H]2CN(C1)Cc1c([nH]c3ccccc13)[C@@](C(=O)OC)(c1cc3c(cc1OC)N(C)[C@H]1[C@@](O)(C(=O)OC)[C@H](OC(C)=O)[C@]4(CC)C=CCN5CC[C@]31[C@@H]54)C2.O=C(O)C(O)C(O)C(=O)O.O=C(O)C(O)C(O)C(=O)O,-13.5%
COc1cc(C)c(/C=C/C(C)=C/C=C/C(C)=C/C(=O)O)c(C)c1C,-99.8%
CN(C)CCOC(c1ccccc1)c1ccccc1,-59.9%
NC(=O)N1c2ccccc2C=Cc2ccccc21,-39.7%
C[C@H](CCC(=O)O)[C@H]1CC[C@H]2[C@@H]3[C@@H](O)C[C@@H]4C[C@H](O)CC[C@]4(C)[C@H]3CC[C@]12C,-19.9%
CC(=O)[C@]1(O)Cc2c(O)c3c(c(O)c2[C@@H](O[C@H]2C[C@H](N)[C@H](O)[C@H](C)O2)C1)C(=O)c1ccccc1C3=O,98.7%
CC(C(=O)O)c1cccc(C(=O)c2ccccc2)c1 (stereo not shown),-37.1%
CC(C)[N+]1(C)[C@@H]2CC[C@H]1CC(OC(=O)C(CO)c1ccccc1)C2.[Br-] (stereo partly shown),-23.6%
CCN(CC)CCOc1ccc(C(=C(Cl)c2ccccc2)c2ccccc2)cc1,-9.8%
Cl.NC[C@H](O)c1ccc(O)c(O)c1,-36.4%

# Block 2 — observed: enzyme activity; action: inhibitor; concentration: 0.5 µM; reference: control
# Target: Maternal embryonic leucine zipper kinase (MELK, Homo sapiens, UniProt Q14680)
# Chain of UniProt Q14680 (whole entry, looked up): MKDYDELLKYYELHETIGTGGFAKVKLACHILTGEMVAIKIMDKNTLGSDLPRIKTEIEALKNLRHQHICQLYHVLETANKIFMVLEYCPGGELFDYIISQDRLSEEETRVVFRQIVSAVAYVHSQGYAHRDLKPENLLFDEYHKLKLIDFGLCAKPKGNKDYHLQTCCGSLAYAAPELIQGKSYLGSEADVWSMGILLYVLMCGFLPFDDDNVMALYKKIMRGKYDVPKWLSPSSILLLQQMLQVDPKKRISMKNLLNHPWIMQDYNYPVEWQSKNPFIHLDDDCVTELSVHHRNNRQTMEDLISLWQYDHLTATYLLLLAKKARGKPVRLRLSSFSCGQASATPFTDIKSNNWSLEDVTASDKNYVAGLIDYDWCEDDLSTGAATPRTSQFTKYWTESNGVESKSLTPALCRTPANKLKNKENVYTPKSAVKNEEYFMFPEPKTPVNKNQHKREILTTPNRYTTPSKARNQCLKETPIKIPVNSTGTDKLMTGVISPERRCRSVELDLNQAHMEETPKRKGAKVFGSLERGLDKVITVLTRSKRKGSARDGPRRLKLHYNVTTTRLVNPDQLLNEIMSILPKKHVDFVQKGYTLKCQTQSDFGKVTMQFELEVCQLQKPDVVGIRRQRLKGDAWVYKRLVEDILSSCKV
SMILES,remaining activity [%]
Cc1cc(Nc2nc(-c3ccccc3)nc3ccccc23)n[nH]1,69.1
CSc1nc(-c2ccnc(N[C@@H](C)c3ccccc3)c2)c(-c2ccc(F)cc2)[nH]1 (racemic),94.2
CC#CC(=O)Nc1cc2c(Nc3ccc(F)c(Cl)c3)ncnc2cn1,101
O=C1Cc2c([nH]c3ccc([N+](=O)[O-])cc23)-c2ccccc2N1,71.7
Fc1ccc(-c2nc3n(c2-c2ccncc2)CCS3)cc1,102
O=C1NC(=O)C(c2c[nH]c3ccccc23)=C1c1c[nH]c2ccccc12,82
N#CC(=C(N)Sc1ccc(N)cc1)c1ccccc1C(F)(F)F,96.1
CC(C)(C)n1nc(Cc2cccc3ccccc23)c2c(N)ncnc21,90.7
Oc1ccc(Nc2nc(-c3ccc(Cl)cc3)cs2)cc1,100
COc1cc(Nc2c(C#N)cnc3cc(OCCCN4CCN(C)CC4)c(OC)cc23)c(Cl)cc1Cl,25.8
O=S(=O)(NCCNC/C=C/c1ccc(Br)cc1)c1cccc2cnccc12,75.1

# Block 3 — method: SPR
# Target: WD repeat-containing protein 5 (WDR5, Homo sapiens, UniProt P61964)
Structure (SMILES),association rate constant
C[C@@H]1CN(c2ccc(-c3cc(C(=O)NCCOCCOCCOCCOCCOCCOCCNC(=O)/C=C/c4[nH]cc(C(=O)N[C@@H](CC(N)=O)c5ccc(F)c(Cl)c5)c4-c4ccc(Cl)cc4F)ccc3F)cc2NC(=O)c2ccc(F)cc2C(F)(F)F)C[C@H](C)N1C,60700 M⁻¹ s⁻¹
C[C@@H]1CN(c2ccc(-c3cc(C(=O)NCCOCCOCCOCCOCCNC(=O)/C=C/c4[nH]cc(C(=O)N[C@@H](CC(N)=O)c5ccc(F)c(Cl)c5)c4-c4ccc(Cl)cc4F)ccc3F)cc2NC(=O)c2c[nH]c(=O)cc2C(F)(F)F)C[C@H](C)N1C,73000 M⁻¹ s⁻¹
C[C@@H]1CN(c2ccc(-c3cc(C(=O)NCCCNC(=O)/C=C/c4[nH]cc(C(=O)N[C@@H](CC(N)=O)c5ccc(F)c(Cl)c5)c4-c4ccc(Cl)cc4F)ccc3F)cc2NC(=O)c2c[nH]c(=O)cc2C(F)(F)F)C[C@H](C)N1C,83300 M⁻¹ s⁻¹

# Block 4 — observed: cell-free assay; method: competition with immobilised ligand; concentration: 1 µM
# SMILES: Cc1c(NC(=O)c2cc(C(N)=O)nc3cc(F)ccc23)c(C(F)(F)F)nn1Cc1ccc(C#N)cc1
target,remaining binding
"MAP3K13 (Homo sapiens, UniProt O43283)",84%
"CLK3 (Homo sapiens, UniProt P49761)",100%
"PRKCH (Homo sapiens, UniProt P24723)",95%
"Tyrosine-protein kinase JAK2, JH1 (JAK2, Homo sapiens, UniProt O60674)",75%
"TBK1 (Homo sapiens, UniProt Q9UHD2)",70%
"PAK6 (Homo sapiens, UniProt Q9NQU5)",100%
"RET (Homo sapiens, UniProt P07949)",94%
"TGFBR2 (Homo sapiens, UniProt P37173)",100%
"Non-receptor tyrosine-protein kinase TYK2, JH2 (TYK2, Homo sapiens, UniProt P29597)",77%
"PAK3 (Homo sapiens, UniProt O75914)",76%
"PAK4 (Homo sapiens, UniProt O96013)",98%
"PRKD1 (Homo sapiens, UniProt Q15139)",100%
"STK25 (Homo sapiens, UniProt O00506)",100%
"Ribosomal protein S6 kinase alpha-1, C-terminal kinase domain (RPS6KA1, Homo sapiens, UniProt Q15418)",78%
"PHKG2 (Homo sapiens, UniProt P15735)",94%
"EGFR (Homo sapiens, UniProt P00533)",100%
"CDK8 (Homo sapiens, UniProt P49336)",56%
"IRAK4 (Homo sapiens, UniProt Q9NWZ3)",84%

# Excerpt of the above (block 2):
SMILES,remaining activity [%]
Cc1cc(Nc2nc(-c3ccccc3)nc3ccccc23)n[nH]1,69.1
N#CC(=C(N)Sc1ccc(N)cc1)c1ccccc1C(F)(F)F,96.1
O=C1NC(=O)C(c2c[nH]c3ccccc23)=C1c1c[nH]c2ccccc12,82
O=C1Cc2c([nH]c3ccc([N+](=O)[O-])cc23)-c2ccccc2N1,71.7
Fc1ccc(-c2nc3n(c2-c2ccncc2)CCS3)cc1,102
